Measurements of several laboratories.
Every numbered part comes from another study and shows a few of its results, in no order.

Series 1
Target: Interferon regulatory factor 5, full length, phosphomimetic (IRF5, Homo sapiens, UniProt Q13568-2, residues 1-514, K96S/S451D/S453D/S456D/S462D)
Method: protein-binding microarray
Form: double-stranded DNA, one strand shown
Sample: in vitro
Tested at: 250 nM
Notes: 60-bp whole probe
Together with: salmon DNA 0.4 mg/ml
Relative to: random background probes
Direction: higher = stronger binding
All sequences stand within: GCCTAGCAC … GTCTTGATTCGCTTGACGCTGCTG
With `TTAGGTCTCCTTCTCCTTAAGTGCTAG` the log fluorescence was -0.00441 z-score.
The log fluorescence of `TTAGAACCGGGGACTGGATTAGTGCTA` is reported as -0.223 z-score.
For `TTAGGTTTCGGTTTCAGTTAGTGCTAG`, the log fluorescence was 11.2 z-score.
`GACGATAGCGGGTTTCGAGACGTGCTA` has a log fluorescence of 1.81 z-score.
For `TTAGAACTAGGGACTGGATTAGTGCTA`, the log fluorescence was -0.337 z-score.
`ATGTGTTTAAGAATGTTTTTGTGCTAG` gave a log fluorescence of 0.552 z-score.
With `TCCTGCTGTACCCCTAGGGCGTGCTAG` the log fluorescence was -0.433 z-score.
For `GACGATTTCAGATTCGAGACGTGCTAG`, the log fluorescence was 0.754 z-score.
The log fluorescence of `GACGGACTGCTTATCCGGACGTGCTAG` is reported as -0.414 z-score.
`GACGATGCCAGTTTCGAGACGTGCTAG` gave a log fluorescence of 4.83 z-score.
For `TTAGAACTGAGTATCGACTAGTGCTAG`, the log fluorescence was 3.36 z-score.
The log fluorescence of `GACGGTTTCGGTATCGGGCCGTGCTAG` is reported as 9.68 z-score.
`TTAGAACTGAGTTTGGATTAGTGCTAG` gave a log fluorescence of -0.23 z-score.
The log fluorescence of `TTAGGCCTCCTTATCCTTTAGTGCTAG` is reported as -0.0537 z-score.
`TTAGGTCTCCTACTGCTTTTGTGCTAG` gave a log fluorescence of -0.219 z-score.
With `GACGAGCTGGGGTTTCGAGACGTGCTA` the log fluorescence was 0.683 z-score.

Series 2
Target: Histone acetyltransferase KAT6A, winged helix 2, GST fusion (KAT6A, Homo sapiens, UniProt Q92794, residues 85-181)
Method: protein binding microarray
Form: double-stranded DNA, one strand shown
Sample: in vitro
Tested at: not given
Notes: 8-mer, flanks averaged, mean of 2 arrays, mostly near background
Relative to: not given
Direction: higher = stronger binding
Residues (chain): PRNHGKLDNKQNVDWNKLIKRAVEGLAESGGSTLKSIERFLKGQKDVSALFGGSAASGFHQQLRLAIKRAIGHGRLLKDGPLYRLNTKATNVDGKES
With `CCCCCATA` the E-score was -0.201.
`CTTCTTAC` has an E-score of -0.00996.
With `AGTGTCAC` the E-score was 0.0283.
`ACAGATAC` gave an E-score of -0.0442.
For `GGCAGGAC`, the E-score was 0.00553.
For `AATACCCC`, the E-score was -0.103.
For `AAGATAAG`, the E-score was 0.0114.
`ACGGTTCA` has an E-score of -0.273.
For `AATGTCCC`, the E-score was -0.0236.
`ATAAAAAT` has an E-score of 0.107.
For `ATCCAAAT`, the E-score was -0.159.
`GAGGGCGA` has an E-score of -0.154.
`CTGTGCAA` gave an E-score of 0.0849.
`TACCACCA` gave an E-score of -0.111.
With `CCGGGTAA` the E-score was 0.0893.
The E-score of `GGTAATAC` is reported as 0.0257.
For `CAAACCGA`, the E-score was 0.056.
With `TAAGCATA` the E-score was 0.113.
For `CGGGTTTC`, the E-score was 0.245.
For `CCGTTAAG`, the E-score was 0.008.
`GGCATAGA` has an E-score of 0.0135.
`AATGAACC` gave an E-score of 0.116.
For `CTCCATAA`, the E-score was 0.0314.
`CCTCCTCC` has an E-score of 0.211.
With `CTAGTAAA` the E-score was 0.0641.

Series 3
Target: RNA binding protein fox-1 homolog 2, RRM domain, GST-SBP tag (RBFOX2, Homo sapiens, UniProt O43251-10, residues 100-194)
Method: RNA Bind-n-Seq
Form: RNA
Sample: in vitro
Tested at: 365 nM
Notes: natural RNA segment, single round, ends assumed
Relative to: no-protein control
Direction: higher = stronger binding
Construct (chain): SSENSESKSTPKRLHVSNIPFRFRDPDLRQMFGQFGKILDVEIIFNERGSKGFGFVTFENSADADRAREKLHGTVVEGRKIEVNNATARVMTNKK
`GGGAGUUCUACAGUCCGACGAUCCCACACCCGACACCAGCCCUGCUGCUUCCUAACUUAUUGCCUGGGCAGUGCCCACCAUGCACCCCUGAUGUUCGCCGUCUGGCGAGCCCUUAGCCUUGCUGUAGAGACUUUGGAAUUCUCGGGUGCCAA` — result for “RBNS enrichment (R)”: 0.794.
Under “RBNS enrichment (R)”, `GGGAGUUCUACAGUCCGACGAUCUUUAUUAAGAACUCUUUAUUUUCUUCAUACCCUGUUCUCUGCAGUGCUUUCUAACAGCUUCUGGGUGCAGAUUUUCUUCGGCAUCCUUUUGCACUCAGCUUAUUACAGGUUGGAAUUCUCGGGUGCCAA` is recorded as 0.45.
For `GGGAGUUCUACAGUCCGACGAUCUCUCACGUAAACCUUCCUGAAAGAUAAACGUUUUCCUGAAUUCAGAAACUAGUAGCUAACAUUGCUUCUGGAGAGCAGAAAUAAGCAUGUCUUCUGGCUACUAAGUGAUAUGGAAUUCUCGGGUGCCAA`, “RBNS enrichment (R)” read 1.1.
For `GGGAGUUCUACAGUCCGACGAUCGAACAUUUAAAUAUAUUUAUAUUCCUGGAGAUACACAUUCUCAUUUUUGUUGGUUUAUUAUAAAUUAUUCUUCUAGAUGCAUCUUUUAUAACUAGGAUUUCAUUUUGUGUUGGAAUUCUCGGGUGCCAA`, “RBNS enrichment (R)” read 3.55.
For `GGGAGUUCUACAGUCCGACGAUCACAUGCUUAUUGAAUGUAUAGCCGUGUUUGCUGAGUAACCUGUCCCACCGUUGAGGCUAUCUGAAGUGUAUUGUAUGAAGGAAGUAUCAAGAACAAAUCAUUGGCCCGUUUGGAAUUCUCGGGUGCCAA`, “RBNS enrichment (R)” read 4.42.
`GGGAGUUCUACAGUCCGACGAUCUAAAUGUGACUUUUAUGUCAGCCAUCGUCAGUUUCAACAUCUAGAACUAAAUAGAAAGCUAGUUGUUCCGCAGAUAGGAGUAGUCUUUAUUGUCCUGUACGGUCGGUGGCUGGAAUUCUCGGGUGCCAA` — result for “RBNS enrichment (R)”: 0.369.
Under “RBNS enrichment (R)”, `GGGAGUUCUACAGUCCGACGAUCGGCUGAUGAGCAGCGUCAAGGACAACGUGGGCCGCGGGCUGAACAUCGCCCUGGUGAACGGGGUCAGCGGCGAGCUCAUCGAGGCCCGGGCCUUUGACAUGUGGGCCGGAUGGAAUUCUCGGGUGCCAA` is recorded as 0.99.
`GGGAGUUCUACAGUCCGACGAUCUGUUUCCACCAAUAGUGCCAAGAAGACACUGCCUGAUUCUUCCCCGGGAGGAGUGACUCCUCUGAAGAAGACAUGACUCAUGUUCAGUUGAGACCCCAGACUCUAGCCACUGGAAUUCUCGGGUGCCAA`: “RBNS enrichment (R)” 0.327.
For `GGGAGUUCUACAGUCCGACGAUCGGAAACUAAGAUAAACUUAGUGUAUCUGAGAAGAAUACCUGUCCAUCUUGCUACCCGCUUUUGCCUGACUCAGACUCCAGCUCUCAUACAGCUCUGUCUGCCACACACGUUGGAAUUCUCGGGUGCCAA`, “RBNS enrichment (R)” read 0.258.
`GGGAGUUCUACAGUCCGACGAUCGACUCUGCUACAUACAGGGUCCAUGUGGGCUGAUAACUAGUACCAGGGGCCUGCUGCAUGCUACGCAUUGGGAUGGGUGCCCGACAUAAUACUGAAUCCUCAAGAAGCCUUGGAAUUCUCGGGUGCCAA`: “RBNS enrichment (R)” 2.64.
`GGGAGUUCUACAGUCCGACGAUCGAACCCAAACUACUUUAGUCCCUAGAAAAGUUUCUGCUCAGAACUGAGGAUGGAAAGAGCCGUAAUGACGUUGGCCUUGCCGUGUUCCUUCUCCUCAGCGCCACACUCACUGGAAUUCUCGGGUGCCAA` — result for “RBNS enrichment (R)”: 0.335.
For `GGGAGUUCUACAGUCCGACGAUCACUCCCUAGCGCCCUGGUUGUGGUGACAGUCCAACAAGUUGAUAUUAUAAAGCACUUUAUAACACCCCUCUGUUUGCUAUUAUUUAAGAGCGUGCAAUUGGUGGUUCUGAUGGAAUUCUCGGGUGCCAA`, “RBNS enrichment (R)” read 0.549.

Series 4
Target: Sal-like protein 4, full length isoform B (SALL4, Homo sapiens, UniProt Q9UJQ4-2, residues 1-616)
Method: universal PBM
Form: double-stranded DNA, one strand shown
Sample: in vitro
Tested at: not given
Notes: 8-mer, flanks averaged, mean of replicates
Direction: higher = stronger binding
The E-score of `GGCGAGCC` is reported as -0.327.
`CCGTCTTA` has an E-score of -0.0354.
`CAGCATGC` has an E-score of -0.105.
The E-score of `AATCATCG` is reported as 0.0968.
For `ACTTAGTG`, the E-score was 0.121.
`CGGACCGA` has an E-score of -0.289.
`AATGCTCA` gave an E-score of 0.104.
With `ACAGCGTA` the E-score was -0.12.
For `CGTGCAAA`, the E-score was 0.0921.
The E-score of `CATAAGAA` is reported as 0.307.
With `ACGCTCTC` the E-score was -0.13.
For `GTAACACA`, the E-score was 0.175.
For `GCCTAGGC`, the E-score was -0.222.
`GGTATCAC` gave an E-score of -0.133.
With `CTTAGAGA` the E-score was -0.129.
For `ACGAATTG`, the E-score was -0.00141.
`AAGCTCGA` gave an E-score of -0.0316.
`CTCCCTGA` has an E-score of -0.18.
For `CGGCTAAG`, the E-score was -0.212.
With `CCGAGTCA` the E-score was -0.161.
For `CGGTCCAA`, the E-score was -0.224.
`CAGTTTAC` gave an E-score of 0.0278.
`CGGTCAGC` gave an E-score of -0.155.
The E-score of `TGGAATAA` is reported as 0.158.
The E-score of `ACTGTTGA` is reported as 0.0687.

For quick reference, copied from above (series 2):
For `AATGTCCC`, the E-score was -0.0236.
`ACGGTTCA` has an E-score of -0.273.
With `TAAGCATA` the E-score was 0.113.
For `AAGATAAG`, the E-score was 0.0114.
With `CCCCCATA` the E-score was -0.201.
With `AGTGTCAC` the E-score was 0.0283.
`CCTCCTCC` has an E-score of 0.211.
`ATAAAAAT` has an E-score of 0.107.
For `ATCCAAAT`, the E-score was -0.159.
`CTTCTTAC` has an E-score of -0.00996.
For `AATACCCC`, the E-score was -0.103.
`ACAGATAC` gave an E-score of -0.0442.
